Measurements from different studies.
Lines come from different studies, so protocols differ. Several values in a cell are separate wells, animals, samples, runs or records.
BRAF V600E: Serine/threonine-protein kinase B-raf (BRAF, Homo sapiens, UniProt P15056, V600E)
Sequence of UniProt P15056 (whole entry, unmodified, looked up): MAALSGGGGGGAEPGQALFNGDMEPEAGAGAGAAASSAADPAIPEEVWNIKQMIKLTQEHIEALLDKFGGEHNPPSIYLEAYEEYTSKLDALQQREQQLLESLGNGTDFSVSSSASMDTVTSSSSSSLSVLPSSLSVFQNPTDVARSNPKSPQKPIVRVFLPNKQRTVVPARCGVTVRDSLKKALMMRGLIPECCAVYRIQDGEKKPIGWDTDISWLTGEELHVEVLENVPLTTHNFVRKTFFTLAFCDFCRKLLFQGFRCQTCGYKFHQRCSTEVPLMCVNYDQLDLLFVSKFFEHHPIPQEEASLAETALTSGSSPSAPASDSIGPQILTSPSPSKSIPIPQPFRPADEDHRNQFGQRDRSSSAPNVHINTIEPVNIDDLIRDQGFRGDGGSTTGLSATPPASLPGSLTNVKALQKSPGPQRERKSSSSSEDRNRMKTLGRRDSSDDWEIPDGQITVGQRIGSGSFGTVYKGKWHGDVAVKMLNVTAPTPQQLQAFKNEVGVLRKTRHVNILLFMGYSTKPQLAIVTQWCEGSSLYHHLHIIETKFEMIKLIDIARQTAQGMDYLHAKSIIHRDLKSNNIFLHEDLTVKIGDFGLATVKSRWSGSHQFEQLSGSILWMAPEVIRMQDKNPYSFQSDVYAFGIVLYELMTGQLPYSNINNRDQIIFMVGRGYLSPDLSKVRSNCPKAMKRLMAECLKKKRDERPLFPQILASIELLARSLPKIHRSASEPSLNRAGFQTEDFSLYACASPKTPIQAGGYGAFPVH
BRAF: Serine/threonine-protein kinase B-raf (BRAF, Homo sapiens, UniProt P15056)

| Structure (SMILES) | target | test | system | setting | how to read | endpoint | value |
| --- | --- | --- | --- | --- | --- | --- | --- |
| CN1CCN(Cc2ccc(NC(=O)c3cccc(C#Cc4cnc(N)c5ncccc45)c3)cc2C(F)(F)F)CC1 | BRAF V600E | cell-free assay, competition with immobilised ligand | – | 50 nM | – | remaining binding | 1% |
| COc1ccc(C(=O)/C=C/c2ccccc2-c2c[nH]c3ccc(C#N)cc23)c(O)c1 | BRAF | enzyme activity, inhibitor | – | 20 µM | – | inhibition | -1% |
| C=CC(=O)Nc1cccc(-c2cnc3[nH]cc(C(=O)NC(C)(C)C)c3n2)c1 | BRAF | enzyme activity, inhibitor | – | 0.1 µM | – | inhibition | -3% |
| Cc1cccc(O[C@H]2CCC[C@@H](C(C)CNCc3ccncc3)C2)c1 (relative stereo) | BRAF | cell-free assay | – | 10 µM | – | inhibition | -1% |
| CN1CCN(Cc2ccc(-c3ccc(CO[C@H]4CCC[C@@H]4NC(=O)c4cc(-c5cnn(C)c5)cnc4N)cc3)cc2)CC1 | BRAF | enzyme activity, inhibitor | – | 0.1 µM | – | inhibition | 4% and 10% |
| Cc1[nH]nc2c1N=C(c1ccccc1Cl)c1cnc(N3CCOCC3)cc1N2 | BRAF V600E | enzyme activity, inhibitor | – | 0.5 µM | – | inhibition | 9.3% |
| CS(=O)(=O)Nc1cccc(-c2csc3cnc(Nc4ccc(N5CCN(CCCCCOc6cccc7c6C(=O)N(C6CCC(=O)NC6=O)C7=O)CC5)cc4)nc23)c1 (centres unmarked) | BRAF | probe labelling, inhibitor, KiNativ chemoproteomics | MOLT-4 | 1 µM | – | inhibition | -22.3% |
| NC(=O)[C@@H](O)C[C@H]1CCc2sc3ncnc(O[C@H]4CC[C@H](N5CCOCC5)CC4)c3c21 | BRAF | enzyme activity, inhibitor | – | 10 µM | – | inhibition | 10% |
| C[C@H]1CN(C(=O)c2cn(-c3ccnc(N)n3)c3cc(C#CC4(O)CCCCC4)ccc23)CCN1 | BRAF | enzyme activity, inhibitor, FRET | – | 1 µM | – | inhibition | -2% |
| COCC12C(=O)NC3C4(C(OC)CC1O)C1CC5(O)C(OC)C(O)C(OC(C)=O)(C1C5OC(=O)c1ccccc1)C3(O)C(OC)C24 (centres unmarked) | BRAF | kinase activity, inhibitor, ProQinase kinase profiling | – | 25 µM | baseline: control | remaining activity | 108% and 117% |
| CCn1cc(C(=O)O)c(=O)c2c(N)c(F)c(NC3CCCCC3)cc21 | BRAF V600E | kinase activity | – | 0.1 µM, together with: ATP at Km | – | inhibition | 9.1% |
| CN1CC[C@@H](COc2cnc(C#N)cc2-c2ccn3nc(NC(=O)C4CC4)cc3c2)C1 | BRAF | enzyme activity, inhibitor | – | 1 µM | – | inhibition | 4% |
| C=C1CCCCCCCCCC(CO)C1=O (centres unmarked) | BRAF V600E | cell-free assay | – | 10 µM | – | remaining signal | 76% |
| COc1ccc(NC(=O)Nc2ccc3c(c2)C(=O)N(C(C)CO)CC(C)C(CN(C)Cc2ccc4c(c2)OCO4)O3)cc1 (centres unmarked) | BRAF | kinase activity, KinaseProfiler | – | 0.03 µM, species human | baseline: control | remaining activity | 98% |

For quick reference, copied from above:
| Structure (SMILES) | target | test | system | setting | how to read | endpoint | value |
| --- | --- | --- | --- | --- | --- | --- | --- |
| COc1ccc(C(=O)/C=C/c2ccccc2-c2c[nH]c3ccc(C#N)cc23)c(O)c1 | BRAF | enzyme activity, inhibitor | – | 20 µM | – | inhibition | -1% |
| C=CC(=O)Nc1cccc(-c2cnc3[nH]cc(C(=O)NC(C)(C)C)c3n2)c1 | BRAF | enzyme activity, inhibitor | – | 0.1 µM | – | inhibition | -3% |
